Assay results from different studies.
Compare with care: the assays were run in different laboratories. ± gives the spread as reported.
Target: Broad substrate specificity ATP-binding cassette transporter ABCG2 (ABCG2, Homo sapiens, UniProt Q9UNQ0)
One construct used (Q9UNQ0 1-655): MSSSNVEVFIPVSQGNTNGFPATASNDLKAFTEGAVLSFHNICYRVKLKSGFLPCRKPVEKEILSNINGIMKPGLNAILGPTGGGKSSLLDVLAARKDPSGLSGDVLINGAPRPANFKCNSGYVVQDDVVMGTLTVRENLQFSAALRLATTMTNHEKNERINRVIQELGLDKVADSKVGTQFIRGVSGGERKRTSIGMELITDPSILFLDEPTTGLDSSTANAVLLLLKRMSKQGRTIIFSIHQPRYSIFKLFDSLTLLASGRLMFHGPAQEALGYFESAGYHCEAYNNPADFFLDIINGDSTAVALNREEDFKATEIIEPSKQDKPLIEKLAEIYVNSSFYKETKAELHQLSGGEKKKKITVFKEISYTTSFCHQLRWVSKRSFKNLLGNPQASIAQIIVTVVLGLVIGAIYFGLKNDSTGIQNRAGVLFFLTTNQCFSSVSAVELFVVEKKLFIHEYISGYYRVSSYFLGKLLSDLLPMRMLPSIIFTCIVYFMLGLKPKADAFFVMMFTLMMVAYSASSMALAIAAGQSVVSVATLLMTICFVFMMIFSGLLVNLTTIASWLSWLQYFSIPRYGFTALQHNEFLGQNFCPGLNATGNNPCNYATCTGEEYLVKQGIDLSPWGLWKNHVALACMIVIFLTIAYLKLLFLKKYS

| SMILES | assay | system | setting | how to read | measurement | value |
| --- | --- | --- | --- | --- | --- | --- |
| C=CC(=O)N1CCC([C@@H]2CCNc3c(C(N)=O)c(-c4ccc(Oc5ccccc5)cc4)nn32)CC1 | transport, item: Lucifer Yellow uptake | membrane vesicles | 0.2 µM | baseline: vehicle | remaining activity | 108 ± 4.5% |
| O=c1ccc(=O)c2c1c1c(=O)c3ccccc3c1n2CCCc1ccccc1 | mitoxantrone efflux, inhibitor, flow cytometry | HEK293 transfected with ABCG2 | 10 µM, 30 min, with: mitoxantrone 5 µM | baseline: Ko143 1 µM | inhibition | 33% |
| CCN1C(=O)N(c2c(F)c(OC)cc(OC)c2F)Cc2cnc3[nH]c(CN4CCOCC4)cc3c21 | efflux, substrate | – | – | – | saturating concentration | 30 µM |
| O=C(O)[C@H]1O[C@@H](Oc2c(-c3ccccc3)oc3cccc(O)c3c2=O)[C@H](O)[C@@H](O)[C@@H]1O | glucuronide efflux, substrate | HeLa cells expressing UGT1A9 | – | – | Km | 12.8 ± 2.9 µM |
| O=C(c1ccccc1)N1CCN(c2cc(-c3ccccc3)nc3cc(-c4ccc(F)cc4)nn23)CC1 | JC-1 dye efflux, inhibitor, flow cytometry | ABCG2-overexpressing cells | with: JC-1 1 µM | – | IC50 | 2.03 ± 0.11 µM |
| O=c1cc(-c2ccccc2)c(=O)c2c1c1c(=O)c3ccccc3c1n2CCc1ccccc1 | mitoxantrone efflux, inhibitor, flow cytometry | HEK293 transfected with ABCG2 | 10 µM, 30 min, with: mitoxantrone 5 µM | baseline: Ko143 1 µM | inhibition | 128 ± 6% |
| COc1cccc(-c2cc3nc(-c4ccco4)cc(N4CCN(C(=O)c5ccoc5)CC4)n3n2)c1 | JC-1 dye efflux, inhibitor, flow cytometry | ABCG2-overexpressing cells | with: JC-1 1 µM | – | IC50 | 2.26 µM |
| CCOc1cc2ncc(C#N)c(Nc3ccc(OCc4ccccn4)c(Cl)c3)c2cc1NC(=O)/C=C/CN(C)C | substrate, bidirectional transwell permeability | MDCKII cells transfected with ABCG2 | 1 µM, 1 h, pH 7.4 | baseline: without over with ABCG2 inhibitor | net efflux ratio | 2.14 |
| COc1ccc(-c2cc3nc(-c4ccccc4)cc(N4CCN(C(=O)c5ccoc5)CC4)n3n2)cc1 | JC-1 dye efflux, inhibitor, flow cytometry | ABCG2-overexpressing cells | with: JC-1 1 µM | – | IC50 | 1.16 ± 0.66 µM |
| CC(=O)c1cc(C(=O)N[C@@H](C)Cn2ccc(-c3ccc(C#N)c(Cl)c3)n2)[nH]n1 | inhibitor | MDCK | with: cladribine substrate | – | IC50 | 0.57 µM |
| O=c1cc(-c2ccccc2)c(=O)c2c1c1c(=O)c3ccccc3c1n2Cc1ccccc1 | mitoxantrone efflux, inhibitor, flow cytometry | HEK293 transfected with ABCG2 | 10 µM, 30 min, with: mitoxantrone 5 µM | baseline: Ko143 1 µM | inhibition | 41% |
| O=C(c1ccoc1)N1CCN(c2cc(-c3ccoc3)nc3cc(-c4ccccc4)nn23)CC1 | JC-1 dye efflux, inhibitor, flow cytometry | ABCG2-overexpressing cells | with: JC-1 1 µM | – | IC50 | 1.4 µM |

Repeated from above:
| SMILES | assay | system | setting | how to read | measurement | value |
| --- | --- | --- | --- | --- | --- | --- |
| C=CC(=O)N1CCC([C@@H]2CCNc3c(C(N)=O)c(-c4ccc(Oc5ccccc5)cc4)nn32)CC1 | transport, item: Lucifer Yellow uptake | membrane vesicles | 0.2 µM | baseline: vehicle | remaining activity | 108 ± 4.5% |
